Experimental data gathered from unrelated publications.
Lines come from different studies, so protocols differ. Several values in a cell are separate wells, animals, samples, runs or records.
USP3 ZnF-UBD domain: Ubiquitin carboxyl-terminal hydrolase 3, ZnF-UBD domain (USP3, Homo sapiens, UniProt Q9Y6I4)
UniProt Q9Y6I4, sequence (whole entry, looked up): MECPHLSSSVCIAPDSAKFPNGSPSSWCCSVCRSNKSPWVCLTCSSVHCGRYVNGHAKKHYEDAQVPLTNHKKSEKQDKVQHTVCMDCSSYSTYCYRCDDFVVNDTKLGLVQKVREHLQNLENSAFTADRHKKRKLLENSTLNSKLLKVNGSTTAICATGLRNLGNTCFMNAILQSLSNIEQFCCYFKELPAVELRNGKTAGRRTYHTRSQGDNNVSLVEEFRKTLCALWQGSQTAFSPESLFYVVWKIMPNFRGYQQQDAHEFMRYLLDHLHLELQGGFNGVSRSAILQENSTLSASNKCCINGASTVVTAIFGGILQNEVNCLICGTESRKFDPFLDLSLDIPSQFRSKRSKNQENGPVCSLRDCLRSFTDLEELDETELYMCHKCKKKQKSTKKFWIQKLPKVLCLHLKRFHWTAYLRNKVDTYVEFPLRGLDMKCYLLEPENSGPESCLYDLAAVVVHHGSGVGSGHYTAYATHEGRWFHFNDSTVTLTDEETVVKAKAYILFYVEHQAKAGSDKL

| Compound | tested on | assay | test system | setting | scale | endpoint | result |
| --- | --- | --- | --- | --- | --- | --- | --- |
| O=C(NCC1CCOCC1)c1ccc(C2CCCCC2)cc1 | – | liver microsome stability | human liver microsomes | 1 µM, without NADPH | – | hepatic clearance | 3.9 mL/min/kg |
| CCN(CC)C(=S)SSC(=S)N(CC)CC | Mus musculus | gene silencing, high-content imaging | LDR reporter GFP cells | retest run 2 | – | maximal activity | 78% |
| O=C(O)CNc1ncccn1 | USP3 ZnF-UBD domain | – | – | – | – | Kd | 855 µM |
| COc1ccc2ncn(-c3cc(O[C@H](C)c4ccccc4Cl)c(C(N)=O)s3)c2c1 | Trypanosoma brucei | – | – | unit not given | baseline: pEC50 T. brucei minus pTC50 HepG2 | selectivity | 2 |
| CC(C)NCC(O)c1ccc(O)c(O)c1 (centres unmarked) | β2 adrenergic receptor E122Q (human) | PRESTO-Tango luciferase | HTLA cells | 10 nM | – | β-arrestin2 recruitment | 124 RLU and 127 RLU and 177 RLU and 296 RLU and 140 RLU and 154 RLU |
| C[C@H]1C[C@H]2CSC(N)=N[C@@]2(c2nc(NC(=O)c3ccc(OC(F)F)cn3)cs2)CO1 | – | refers to: Aβx-40 | healthy adults, plasma | 400 mg single dose, 8 h post-dose | baseline: placebo | percent change from baseline | -63.1% |
| CC(C)n1ncc2c(C(=O)NCC3(C)CNC3)cc(C3CC3)nc21 | Enterovirus D68 | cytopathic effect | RD, US/MO/14-18947 | 5 nM | – | cell protection | 0.265% and 0% and -0.133% |
| COc1cc2nc(=S)n3[nH]c(CCn4nc(C)cc4C)nc3c2cc1OC | Mus musculus | gene silencing, high-content imaging | LDR reporter GFP cells | retest run 1 | – | maximal activity | 119% |
| c1coc(-c2n[nH]cc2-c2ccnc3ccccc23)c1 | PBS2 (Candida albicans) | kinase binding, MIB/MS competition | Candida albicans lysate | 10 µM | baseline: DMSO | log2 fold change | -0.23 |
| CCn1c(=O)c(-c2cc[nH]n2)cc2c(C)nc(N)nc21 | Enterovirus A71 | histopathology | EV71-infected suckling mice, brain | 0.25 mg/kg | direction not given | total pathology score | 1 |
| O=C(Cn1c(=O)n(Cc2ccc(F)cc2)c(=O)c2sc3ccccc3c21)Nc1ccc(F)cc1F | Mus musculus | gene silencing, high-content imaging | LDR reporter GFP cells | retest run 2 | – | maximal activity | 61% |
| Cn1cc(-c2ccc(-c3cncc(Cl)c3N3CCC4(CCNC4=O)CC3)cc2)cn1 | COLO 205 | gene expression, microarray, refers to: RPSA mRNA | – | concentration not given, 6 h | baseline: untreated cells | log2 fold change | -2.58 |
| CS(=O)(=O)CCNCc1ccc(-c2ccc3ncnc(Nc4ccc(OCc5cccc(F)c5)c(C(F)(F)F)c4)c3c2)o1 | Trypanosoma brucei | – | – | unit not given | baseline: pEC50 T. brucei minus pTC50 HepG2 | selectivity | 0.9 |
| NC(=O)c1cnc2[nH]ccc2c1N[C@@H]1[C@@H]2CC3C[C@H]1C[C@@](O)(C3)C2 | – | flow cytometry, refers to: CD4+ central memory T cells | Japanese healthy subjects, peripheral blood | oral, 10 mg twice daily, day 7 | – | change from baseline | 0.55% |
| C[C@@H]1CCc2c(sc(NC(=O)CN3CCN(S(=O)(=O)c4ccc5c(c4)OCCO5)CC3)c2C#N)C1 | NAADP receptor | antagonist, fluo-3 fluorescence | Lytechinus pictus, egg homogenate | up to 6 µM, added: NAADP 30 to 50 nM | – | NAADP-mediated Ca2+ release | inactive |
| NS(=O)(=O)c1ccc(N/N=C2\C(=O)Nc3ccc(Cl)cc32)cc1 | Trypanosoma brucei | – | – | unit not given | baseline: pEC50 T. brucei minus pTC50 HepG2 | selectivity | 1.1 |

| Compound | tested on | assay | test system | setting | scale | endpoint | result |
| --- | --- | --- | --- | --- | --- | --- | --- |
| N#Cc1sc2nc(-c3ccccc3)cc(C(F)(F)F)c2c1N | Mus musculus | gene silencing, high-content imaging | LDR reporter GFP cells | retest run 2 | – | maximal activity | 19% |
| COCCC(=O)Nc1ccc(C2CCCCC2)cc1 | – | liver microsome stability | rat liver microsomes | 1 µM | – | hepatic clearance | 50 mL/min/kg |
| O=[N+]([O-])c1ccc(-c2ccc(/C=N/Nc3nc(N4CCCCC4)nc(N4CCCCC4)n3)o2)cc1 | Mus musculus | gene silencing, high-content imaging | LDR reporter GFP cells | retest run 1 | – | maximal activity | 30% |
| O=C(O)CCn1cnc2ccccc21 | USP3 ZnF-UBD domain | – | – | – | – | Kd | > 1000 µM |
| COc1cc2c(cc1Nc1nc(Nc3cccc(F)c3C(N)=O)c3cc[nH]c3n1)N(C(=O)CN1CCN(C(C)C)CC1)CC2 | Trypanosoma brucei | – | – | unit not given | baseline: pEC50 T. brucei minus pTC50 HepG2 | selectivity | 1.4 |
| COc1ccc(C(=O)/C=C/Sc2nc3ccccc3o2)cc1 | Mus musculus | gene silencing, high-content imaging | LDR reporter GFP cells | retest run 1 | – | maximal activity | 30% |
| N#Cc1ccc2c(-c3ccncc3)c(-c3ccc(F)cc3)nn2c1 | – | kinase binding, competitor, MIB/MS competition, refers to: SCH9 | Candida albicans cell lysate | 1 µM | baseline: DMSO | log2 fold change | 0.179 |
| COc1cc(C=NNc2ncnc3c2cnn3-c2ccccc2)ccc1O | Trypanosoma brucei | – | – | unit not given | baseline: pEC50 T. brucei minus pTC50 HepG2 | selectivity | > 1.8 |
| OC(CCN1CCCCC1)(c1ccccc1)C1CC2C=CC1C2 (centres unmarked) | – | resting-state EEG | healthy elderly humans | oral, 4 mg, eyes closed, LS mean | baseline: baseline | change in EEG Alpha2-power Pz-O1 | 32% |
| CC(C)=Cc1cccc2c1C(=NNc1ccc(S(N)(=O)=O)cc1)C(=O)N2 | Trypanosoma brucei | – | – | unit not given | baseline: pEC50 T. brucei minus pTC50 HepG2 | selectivity | 2.5 |
| COc1ccccc1OCC(=O)N/N=C/C=C/c1ccc([N+](=O)[O-])o1 | Mus musculus | gene silencing, high-content imaging | LDR reporter GFP cells | retest run 1 | – | maximal activity | 38% |
| C[C@H](Oc1ccc(Br)cc1-c1ccon1)C(=O)O | – | muscle velocity recovery cycles | human, tibialis anterior muscle | 400 mg twice daily, multiple doses, frequency ramp, first response at 30 Hz | baseline: placebo | latency change | -1.46% |
| CCc1ccc(Oc2nccc(-c3c(-c4ccc(F)cc4)ncn3C3CCNCC3)n2)cc1 | Trypanosoma brucei | – | – | unit not given | baseline: pEC50 T. brucei minus pTC50 HepG2 | selectivity | 0.8 |
| COc1ccc(NC(=O)c2sc3nc(-c4ccc(OC)cc4)cc(C(F)(F)F)c3c2N)cc1 | Mus musculus | gene silencing, high-content imaging | LDR reporter GFP cells | retest run 2 | – | maximal activity | 122% |
| O=C1Nc2ccc(-c3cccnc3)cc2C1=Cc1cc(Br)c(O)c(Br)c1 | Trypanosoma brucei | – | – | unit not given | baseline: pEC50 T. brucei minus pTC50 HepG2 | selectivity | 1.2 |
| Oc1ccccc1-c1n[nH]cc1-c1ccnc2ccccc12 | CTK1 (Candida albicans) | kinase binding, MIB/MS competition | Candida albicans lysate | 1 µM | baseline: DMSO | log2 fold change | -0.02 |

Some of these lines once more:
| Compound | tested on | assay | test system | setting | scale | endpoint | result |
| --- | --- | --- | --- | --- | --- | --- | --- |
| CC(C)=Cc1cccc2c1C(=NNc1ccc(S(N)(=O)=O)cc1)C(=O)N2 | Trypanosoma brucei | – | – | unit not given | baseline: pEC50 T. brucei minus pTC50 HepG2 | selectivity | 2.5 |
| COc1ccccc1OCC(=O)N/N=C/C=C/c1ccc([N+](=O)[O-])o1 | Mus musculus | gene silencing, high-content imaging | LDR reporter GFP cells | retest run 1 | – | maximal activity | 38% |
| C[C@H](Oc1ccc(Br)cc1-c1ccon1)C(=O)O | – | muscle velocity recovery cycles | human, tibialis anterior muscle | 400 mg twice daily, multiple doses, frequency ramp, first response at 30 Hz | baseline: placebo | latency change | -1.46% |
| CCc1ccc(Oc2nccc(-c3c(-c4ccc(F)cc4)ncn3C3CCNCC3)n2)cc1 | Trypanosoma brucei | – | – | unit not given | baseline: pEC50 T. brucei minus pTC50 HepG2 | selectivity | 0.8 |
